Measured values gathered from unrelated publications.
Each line is one published result; not all experiments were run side by side. ± gives the spread as reported.
PTPN1: Tyrosine-protein phosphatase non-receptor type 1 (PTPN1, Homo sapiens, UniProt P18031)
MDM4: Protein Mdm4 (MDM4, Homo sapiens, UniProt O15151)

Sequences of proteins named here, by UniProt entry; tags and fusion partners are left off. A change or cut given only in a name is not applied to a line headed by its entry. Residues count along the entry.
UniProt P18031, 1-321 limits assumed: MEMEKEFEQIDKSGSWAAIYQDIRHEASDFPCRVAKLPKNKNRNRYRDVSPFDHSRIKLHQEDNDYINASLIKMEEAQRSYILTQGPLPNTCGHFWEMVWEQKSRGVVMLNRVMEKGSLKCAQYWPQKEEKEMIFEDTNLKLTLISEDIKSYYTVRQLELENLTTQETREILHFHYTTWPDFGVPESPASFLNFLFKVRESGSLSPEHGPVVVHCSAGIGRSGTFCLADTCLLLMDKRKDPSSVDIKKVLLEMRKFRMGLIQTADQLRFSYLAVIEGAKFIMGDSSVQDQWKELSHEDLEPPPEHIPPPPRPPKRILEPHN
UniProt O15151, 23-111 limits assumed: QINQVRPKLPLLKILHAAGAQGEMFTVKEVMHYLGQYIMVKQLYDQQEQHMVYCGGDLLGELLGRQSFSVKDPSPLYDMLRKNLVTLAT
UniProt Q9BY41, whole entry: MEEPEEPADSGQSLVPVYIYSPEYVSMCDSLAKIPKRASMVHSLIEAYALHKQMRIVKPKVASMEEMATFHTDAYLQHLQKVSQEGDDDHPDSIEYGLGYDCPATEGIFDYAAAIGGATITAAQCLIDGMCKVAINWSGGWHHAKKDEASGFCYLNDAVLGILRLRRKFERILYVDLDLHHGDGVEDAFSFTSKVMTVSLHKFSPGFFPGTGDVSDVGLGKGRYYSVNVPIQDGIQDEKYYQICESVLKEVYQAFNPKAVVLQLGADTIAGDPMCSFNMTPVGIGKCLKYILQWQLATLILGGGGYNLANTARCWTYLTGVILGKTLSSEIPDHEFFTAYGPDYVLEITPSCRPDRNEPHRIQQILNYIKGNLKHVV
UniProt P45983, whole entry: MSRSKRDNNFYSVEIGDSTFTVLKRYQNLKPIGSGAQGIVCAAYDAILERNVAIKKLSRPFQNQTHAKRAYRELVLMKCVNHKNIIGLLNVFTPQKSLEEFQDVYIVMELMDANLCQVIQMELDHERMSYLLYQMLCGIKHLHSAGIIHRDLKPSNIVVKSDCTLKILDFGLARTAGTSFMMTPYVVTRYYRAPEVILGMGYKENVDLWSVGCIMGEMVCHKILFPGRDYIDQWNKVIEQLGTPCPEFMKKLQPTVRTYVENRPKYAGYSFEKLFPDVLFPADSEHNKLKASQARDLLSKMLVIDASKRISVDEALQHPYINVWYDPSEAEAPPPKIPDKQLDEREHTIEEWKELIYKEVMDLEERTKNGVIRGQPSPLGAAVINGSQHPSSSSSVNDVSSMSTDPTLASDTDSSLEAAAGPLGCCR
UniProt P61981, whole entry: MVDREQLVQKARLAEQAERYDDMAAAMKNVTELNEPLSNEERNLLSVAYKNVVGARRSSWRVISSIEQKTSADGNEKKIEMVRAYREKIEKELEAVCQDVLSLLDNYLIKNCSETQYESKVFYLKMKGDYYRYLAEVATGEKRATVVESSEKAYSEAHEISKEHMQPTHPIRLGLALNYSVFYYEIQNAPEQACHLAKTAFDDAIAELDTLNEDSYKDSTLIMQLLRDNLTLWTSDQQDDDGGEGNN
UniProt Q06850, whole entry: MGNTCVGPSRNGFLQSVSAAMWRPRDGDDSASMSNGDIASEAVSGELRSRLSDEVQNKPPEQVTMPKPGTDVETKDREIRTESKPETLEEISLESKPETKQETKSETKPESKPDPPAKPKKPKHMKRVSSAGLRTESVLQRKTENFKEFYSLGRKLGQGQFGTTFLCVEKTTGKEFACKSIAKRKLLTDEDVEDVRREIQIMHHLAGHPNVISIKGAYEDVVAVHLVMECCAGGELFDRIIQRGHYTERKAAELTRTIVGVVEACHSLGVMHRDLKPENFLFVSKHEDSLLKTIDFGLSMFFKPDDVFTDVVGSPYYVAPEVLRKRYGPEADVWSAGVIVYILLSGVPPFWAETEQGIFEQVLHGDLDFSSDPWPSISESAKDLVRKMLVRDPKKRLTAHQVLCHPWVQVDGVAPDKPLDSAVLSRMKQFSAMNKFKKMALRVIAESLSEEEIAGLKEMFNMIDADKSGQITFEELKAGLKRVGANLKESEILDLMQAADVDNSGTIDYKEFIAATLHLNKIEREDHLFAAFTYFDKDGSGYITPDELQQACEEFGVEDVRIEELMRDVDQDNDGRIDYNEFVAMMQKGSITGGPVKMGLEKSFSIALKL
UniProt Q00959, 23-1464 limits assumed: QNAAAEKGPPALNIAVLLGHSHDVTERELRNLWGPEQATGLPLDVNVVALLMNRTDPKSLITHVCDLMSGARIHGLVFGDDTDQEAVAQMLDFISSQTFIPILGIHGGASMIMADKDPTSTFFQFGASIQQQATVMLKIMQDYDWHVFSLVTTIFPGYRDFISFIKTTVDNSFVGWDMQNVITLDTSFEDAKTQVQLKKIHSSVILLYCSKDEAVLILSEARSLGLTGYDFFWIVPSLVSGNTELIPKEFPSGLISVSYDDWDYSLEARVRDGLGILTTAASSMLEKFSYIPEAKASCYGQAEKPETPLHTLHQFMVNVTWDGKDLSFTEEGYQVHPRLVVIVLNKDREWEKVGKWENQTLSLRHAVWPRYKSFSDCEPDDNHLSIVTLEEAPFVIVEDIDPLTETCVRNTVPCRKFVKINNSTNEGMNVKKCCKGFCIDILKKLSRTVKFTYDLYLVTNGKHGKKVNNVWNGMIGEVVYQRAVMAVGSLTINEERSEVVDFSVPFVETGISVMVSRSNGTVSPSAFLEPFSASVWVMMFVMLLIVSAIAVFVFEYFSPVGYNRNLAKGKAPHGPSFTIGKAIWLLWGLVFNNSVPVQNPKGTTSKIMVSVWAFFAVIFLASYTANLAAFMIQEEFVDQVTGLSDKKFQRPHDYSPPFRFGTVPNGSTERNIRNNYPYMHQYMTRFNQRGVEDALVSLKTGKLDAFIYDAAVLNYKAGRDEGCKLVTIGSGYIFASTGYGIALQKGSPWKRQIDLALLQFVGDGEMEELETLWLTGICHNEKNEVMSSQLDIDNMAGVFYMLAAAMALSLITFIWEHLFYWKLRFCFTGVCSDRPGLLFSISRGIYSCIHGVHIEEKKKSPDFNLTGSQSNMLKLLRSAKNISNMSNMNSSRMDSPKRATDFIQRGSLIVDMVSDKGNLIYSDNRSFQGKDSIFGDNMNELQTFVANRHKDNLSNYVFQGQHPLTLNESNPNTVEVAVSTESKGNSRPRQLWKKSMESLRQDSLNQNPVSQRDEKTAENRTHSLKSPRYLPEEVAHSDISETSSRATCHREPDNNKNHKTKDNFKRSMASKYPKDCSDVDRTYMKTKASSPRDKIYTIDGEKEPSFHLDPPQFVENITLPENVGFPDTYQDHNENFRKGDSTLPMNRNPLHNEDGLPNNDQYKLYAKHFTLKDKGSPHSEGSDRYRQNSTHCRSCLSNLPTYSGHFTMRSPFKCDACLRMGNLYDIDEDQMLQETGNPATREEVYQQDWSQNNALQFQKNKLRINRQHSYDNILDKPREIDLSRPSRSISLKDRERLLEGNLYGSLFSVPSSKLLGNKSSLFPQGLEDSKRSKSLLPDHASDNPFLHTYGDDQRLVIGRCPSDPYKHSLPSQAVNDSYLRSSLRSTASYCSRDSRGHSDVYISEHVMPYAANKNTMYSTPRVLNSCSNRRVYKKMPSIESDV
UniProt P51570, whole entry: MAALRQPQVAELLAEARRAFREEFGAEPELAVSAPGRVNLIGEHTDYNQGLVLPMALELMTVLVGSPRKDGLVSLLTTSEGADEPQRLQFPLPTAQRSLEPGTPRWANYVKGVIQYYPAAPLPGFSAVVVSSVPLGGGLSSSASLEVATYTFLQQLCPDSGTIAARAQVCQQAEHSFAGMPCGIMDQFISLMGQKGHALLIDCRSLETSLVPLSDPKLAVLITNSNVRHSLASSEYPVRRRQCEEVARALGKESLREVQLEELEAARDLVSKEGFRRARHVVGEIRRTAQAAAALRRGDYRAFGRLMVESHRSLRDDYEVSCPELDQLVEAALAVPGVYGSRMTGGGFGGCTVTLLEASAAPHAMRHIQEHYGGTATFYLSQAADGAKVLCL
UniProt P12821, 30-1306 limits assumed: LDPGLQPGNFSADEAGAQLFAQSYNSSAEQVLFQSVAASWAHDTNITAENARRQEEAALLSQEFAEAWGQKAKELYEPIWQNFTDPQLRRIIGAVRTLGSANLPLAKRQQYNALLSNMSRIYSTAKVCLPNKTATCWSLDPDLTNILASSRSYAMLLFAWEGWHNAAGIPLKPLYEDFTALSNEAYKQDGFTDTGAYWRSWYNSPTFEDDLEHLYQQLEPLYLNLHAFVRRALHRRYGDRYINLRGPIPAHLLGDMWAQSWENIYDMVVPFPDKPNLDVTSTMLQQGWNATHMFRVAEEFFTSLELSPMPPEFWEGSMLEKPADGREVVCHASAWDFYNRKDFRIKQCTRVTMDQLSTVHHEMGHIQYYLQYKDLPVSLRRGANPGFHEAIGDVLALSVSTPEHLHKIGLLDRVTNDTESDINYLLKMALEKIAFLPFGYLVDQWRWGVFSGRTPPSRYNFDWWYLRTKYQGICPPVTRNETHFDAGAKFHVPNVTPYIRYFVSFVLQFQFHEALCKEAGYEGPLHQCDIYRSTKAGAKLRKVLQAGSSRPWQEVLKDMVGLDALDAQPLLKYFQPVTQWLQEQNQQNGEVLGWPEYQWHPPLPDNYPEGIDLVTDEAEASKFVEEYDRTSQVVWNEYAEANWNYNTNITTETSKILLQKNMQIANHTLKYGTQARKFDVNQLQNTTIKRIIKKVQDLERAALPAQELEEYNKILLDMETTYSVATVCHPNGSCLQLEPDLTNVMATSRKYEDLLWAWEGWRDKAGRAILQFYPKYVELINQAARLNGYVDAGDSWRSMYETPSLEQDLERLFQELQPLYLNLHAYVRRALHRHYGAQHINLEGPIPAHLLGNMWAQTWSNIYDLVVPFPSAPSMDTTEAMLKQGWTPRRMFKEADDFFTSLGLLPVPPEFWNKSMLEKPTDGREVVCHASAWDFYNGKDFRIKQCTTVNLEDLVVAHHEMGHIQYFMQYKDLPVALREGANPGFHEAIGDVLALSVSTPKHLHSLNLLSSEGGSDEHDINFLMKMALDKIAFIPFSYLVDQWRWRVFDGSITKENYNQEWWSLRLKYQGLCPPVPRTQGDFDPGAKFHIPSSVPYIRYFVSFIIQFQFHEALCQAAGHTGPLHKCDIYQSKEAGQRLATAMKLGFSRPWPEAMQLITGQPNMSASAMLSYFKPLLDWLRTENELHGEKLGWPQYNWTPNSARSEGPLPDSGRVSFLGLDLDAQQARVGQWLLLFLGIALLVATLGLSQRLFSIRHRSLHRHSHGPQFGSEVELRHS

CC(=O)NCCCC[C@H](NC(=O)[C@H](CCCCNC(C)=O)NC(=O)[C@H](Cc1c[nH]cn1)NC(=O)[C@H](CCCNC(=N)N)NC(C)=O)C(=O)Nc1ccc2c(C)cc(=O)oc2c1
kcat/KM (HDAC8 (Homo sapiens, UniProt Q9BY41); deacetylation, substrate; 25 °C, with: 150 nM enzyme): 259 ± 19 M⁻¹ s⁻¹

N#Cc1c(-c2ccc(Cl)cc2Cl)n(-c2nc(-c3ccc(Cl)cc3)c3c(NC(=O)c4ccccc4)nnc-3[nH]2)[nH]c1=O
cell growth (RPMI-8226; SRB; 10 µM): 33.5%

CC(C)C[C@H](NC(=O)[C@H](C)NC(=O)[C@H](CCCNC(=N)N)NC(=O)[C@H](CCCNC(=N)N)NC(=O)[C@H](CCCNC(=N)N)NC(=O)[C@H](C)NC(=O)[C@H](CC(C)C)NC(=O)[C@H](CCCNC(=N)N)NC(=O)[C@H](CO)NC(=O)[C@H](CCCCN)NC(=O)[C@H](CO)NC(=O)Cn1cc(COC(=O)[C@]2(C)C=C(C(=O)OC(C)(C)C)C(=O)CC2)nn1)C(=O)O
fraction bound (MAPK8 (Homo sapiens, UniProt P45983); binding, competitor, fluorescence polarization; 25 µM; higher = less displacement): 0.0838

CC(=O)N[C@@H](CC(=O)O)C(=O)N[C@H](C(=O)N[C@@H](C)C(=O)N[C@@H](CC(=O)O)C(=O)N[C@H](C(=O)N[C@@H](Cc1ccc(OP(=O)(O)O)cc1)C(=O)N[C@@H](CC(=O)O)C(=O)N[C@@H](Cc1c[nH]c2ccccc12)C(=O)N[C@@H](CCC(=O)O)C(=O)N[C@@H](Cc1ccccc1)C(N)=O)C(C)C)[C@@H](C)O
Km (PTPN1; substrate, continuous UV; pH 7.4, multiply phosphorylated peptides apparent): 5.2 ± 1 µM

CC[C@H](C)[C@H](NC(=O)[C@@H]1CCCN1C(=O)CNC(=O)[C@H](CC(C)C)NC(=O)[C@H](COP(=O)(O)O)NC(=O)[C@H](CC(N)=O)NC(=O)[C@H](CO)NC(=O)[C@H](Cc1c[nH]cn1)NC(=O)[C@H](CCCNC(=N)N)NC(=O)[C@H](CCC(N)=O)NC(=O)[C@H](CC(C)C)NC(C)=O)C(=O)N[C@@H](Cc1ccccc1)C(=O)N[C@@H](CC(=O)O)C(N)=O
ΔH (YWHAG (Homo sapiens, UniProt P61981); isothermal titration calorimetry; pH 7.4, 37 °C): -7.6 kcal/mol

CC(=O)N[C@@H](C)C(=O)N[C@@H](Cc1ccc(O)cc1)C(=O)N[C@H](C(=O)N[C@@H](CCC(=O)O)C(=O)N[C@@H](Cc1ccc(OP(=O)(O)O)cc1)C(=O)N[C@H](C(=O)N[C@@H](Cc1ccc(OP(=O)(O)O)cc1)C(=O)N[C@@H](C)C(=O)N[C@@H](C)C(N)=O)[C@@H](C)O)[C@@H](C)O
Km (PTPN1; substrate, continuous UV; pH 7.4, multiply phosphorylated peptides apparent): 2.9 ± 0.5 µM

CC[C@H](C)[C@H](NC(=O)[C@H](CCCNC(=N)N)NC(=O)[C@H](CO)NC(=O)[C@@H](NC(=O)[C@@H](NC(=O)[C@H](CCCCN)NC(=O)[C@@H](N)C(C)C)[C@@H](C)CC)[C@@H](C)CC)C(=O)N[C@@H](Cc1ccccc1)C(=O)N[C@@H](CO)C(=O)N[C@@H](CCC(N)=O)C(=O)N[C@@H](CCCNC(=N)N)C(=O)N[C@@H](CO)C(=O)N[C@@H](Cc1ccccc1)C(=O)N[C@@H](CCCNC(=N)N)C(=O)N[C@@H](CCCNC(=N)N)C(=O)O
relative phosphorylation (CPK1 (Arabidopsis thaliana, UniProt Q06850); peptide phosphorylation, substrate, scintillation proximity; 20 µM, 24 min, with: 10 µM ATP; reference: no peptide control, higher = more phosphorylation): 20 fold

CC(C)C[C@H](NC(=O)[C@@H](NC(=O)[C@H](CC(C)C)NC(=O)[C@H](CS)NC(=O)CNS(=O)(=O)c1cccc2c(N(C)C)cccc12)C(C)C)C(=O)O
kcat (geranylgeranyltransferase type-I (Rattus norvegicus, UniProt P53610+Q04631); substrate, fluorescence; 30 °C, GGPP 10 µM/enzyme 10 nM, with: GDP 30 µM): 0.052 ± 0.013 s⁻¹

COc1ccc(C2=N[C@@H](c3cccc(Cl)c3)[C@@H](c3ccc(Cl)cc3)N2C(=O)N2CCNC(=O)C2)c(OC(C)C)c1 (relative stereo)
-TΔS (MDM4; isothermal titration calorimetry; 298 K): -1.3 ± 5.2 kcal/mol

CC(=O)C12NC(C)(C)CC1(C)C(=O)C1=C2c2c(c3c4n2C(C)(C)CC2=C4C4(CC(C)(C)NC(C)(C4)C2=O)CC3(C)C)C(=O)C(C)(C)N1 (single isomer, unassigned)
inhibition (SCN2A (Homo sapiens, UniProt Q99250); sodium current; 1 µM): 5 ± 0.04%

C=C(C)C(=O)Nc1ccc(-c2c(-c3ccc(Oc4nccc(C)n4)c(F)c3)c3c(N)ncnc3n2C)cc1
IC50 (AN3 CA; cell growth, CellTiter-Glo; 120 h): 11 nM

NC12CC3CC(F)(CC(C1)c1ccccc13)C2
V0 of IC50 (Glutamate NMDA receptor; Grin1/Grin2a (Grin1/Grin2a, Rattus norvegicus, UniProt P35439+Q00959); ion current, channel blocker, whole-cell patch clamp; tsA201 cells; 10 µM, -105 to +55 mV, no Mg2+, with: 1 mM glutamate; reference: IC50 at -65 mV): 25.4 ± 0.54 mV

Cc1ccc(S(=O)(=O)Nc2ccccc2C(=O)Nc2nc(-c3ccccc3)cs2)cc1
maximal inhibition (Galactokinase (GALK1, Homo sapiens, UniProt P51570); enzyme activity, inhibitor; 57 µM): 100%

CCOC(=O)c1c(-c2ccc(Cl)cc2Cl)n(-c2nc(-c3ccc(Cl)cc3)c3c(NC(=O)c4ccccc4)nnc-3[nH]2)[nH]c1=O
cell growth (SF-268; SRB; 10 µM): 23.8%

COc1ccc2c(CC(=O)N[C@@H](CCCNC(=N)N)C(=O)N3CCC[C@H]3C(=O)N3CCC[C@H]3C(=O)NCC(=O)N[C@@H](Cc3ccccc3)C(=O)N[C@@H](CO)C(=O)N[C@@H](C)C(=O)N[C@@H](Cc3ccccc3)C(=O)N[C@@H](CCCCNc3ccc([N+](=O)[O-])cc3[N+](=O)[O-])C(=O)O)cc(=O)oc2c1
Vmax (ACE (Homo sapiens, UniProt P12821); substrate; with: 5 to 75 µM): 395 ± 70 AFU/min/µg protein

CC(C)C[C@@H]1NC(=O)[C@H](CO)NC(=O)[C@H](Cc2ccccc2)NC(=O)[C@H](CCCNC(=N)N)NC(=O)[C@H](C(C)C)NC(=O)CNC(=O)[C@H](Cc2c[nH]c3ccccc23)NC(=O)[C@H](CCCNC(=N)N)NC(=O)[C@H](Cc2c[nH]cn2)NC(=O)[C@@H](NC(=O)[C@H](C)N)CSSC[C@@H](C(=O)N[C@@H](CO)C(=O)NCC(=O)O)NC1=O
residual binding (Chymotrypsinogen A, alpha-chymotrypsin active form (Bos taurus, UniProt P00766); yeast display flow cytometry; concentration not given, 1 h, 4 °C, target at 10-fold KDapp, with: aprotinin, ≥100-fold molar excess; reference: target without aprotinin): 75%

COc1cccc([C@@H]2N=C(c3ccc(OC)cc3OC(C)C)N(C(=O)N3CCNC(=O)C3)[C@@H]2c2ccc(Cl)cc2)c1 (relative stereo)
binding stoichiometry (MDM4; isothermal titration calorimetry; concentration not given, 298 K): 1 ± 0.2
